Measurements pooled from the literature.
Compare with care: the assays were run in different laboratories.
Target: Serine/threonine-protein kinase DCLK1 (DCLK1, Homo sapiens, UniProt O15075)
Sequence (O15075 1-740, as in one of the studies): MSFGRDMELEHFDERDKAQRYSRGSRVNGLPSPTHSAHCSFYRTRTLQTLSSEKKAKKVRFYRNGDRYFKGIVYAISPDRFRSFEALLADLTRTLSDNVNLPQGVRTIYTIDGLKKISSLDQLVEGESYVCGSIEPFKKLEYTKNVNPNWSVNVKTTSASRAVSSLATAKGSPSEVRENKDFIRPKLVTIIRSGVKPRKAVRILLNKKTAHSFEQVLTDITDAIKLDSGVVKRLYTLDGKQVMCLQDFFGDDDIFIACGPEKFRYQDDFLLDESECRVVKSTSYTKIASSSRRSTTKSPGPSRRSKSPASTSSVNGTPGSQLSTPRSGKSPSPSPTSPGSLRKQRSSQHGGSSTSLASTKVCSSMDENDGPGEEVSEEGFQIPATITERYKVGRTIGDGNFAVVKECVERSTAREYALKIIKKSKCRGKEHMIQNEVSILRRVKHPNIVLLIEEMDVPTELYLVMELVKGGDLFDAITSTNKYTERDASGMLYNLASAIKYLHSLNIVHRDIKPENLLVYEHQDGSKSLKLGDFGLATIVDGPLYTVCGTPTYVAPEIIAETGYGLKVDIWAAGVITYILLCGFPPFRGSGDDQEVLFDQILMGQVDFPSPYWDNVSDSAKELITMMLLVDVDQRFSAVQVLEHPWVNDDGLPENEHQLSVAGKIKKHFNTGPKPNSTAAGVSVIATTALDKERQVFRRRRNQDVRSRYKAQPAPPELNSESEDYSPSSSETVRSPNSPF

SMILES	assay	setting	how to read	quantity	value
CNC(=O)C1CCN(c2cc(C)c(F)cc2NC(=O)c2ccc(-c3cc(O)ccc3C)c(C)c2)CC1	binding, competition with immobilised ligand	1 µM		remaining binding	97%
C=CC(=O)N1CCc2ccc(-n3c(=O)ccc4cnc5ccc(-c6cnn(C)c6)cc5c43)cc21	KINOMEscan	1 µM	relative to: DMSO control	remaining binding	72%
CCN1CCN(Cc2ccc(C(=O)Nc3ccc(C)c(NCc4cnc5[nH]ccc5c4OC)c3)cc2C(F)(F)F)CC1	binding, competition with immobilised ligand	1 µM		remaining binding	75%
CCn1cc(C(=O)O)c(=O)c2c(N)c(F)c(NC3CCCCC3)cc21	kinase activity	0.1 µM, together with: ATP at Km		inhibition	4.3%
Cc1cnc2nc1Nc1cccc(c1)COC/C=C/COCc1cc(ccc1OCCN1CCOCC1)N2		concentration not given, gene name DCAMKL1		percent of control	95%
CC(=O)N1c2ccc(-c3ccc(CNC(=O)c4cn5cc(-c6cnc(N)nc6)nc(N6CCOCC6)c5n4)cc3)cc2CC[C@@H]1C	KINOMEscan	10 µM		remaining binding	100%
COc1cc(Nc2nccc(-c3cnn4nc(OC)ccc34)n2)cc(C(F)(F)F)c1	binding, competition with immobilised ligand	1 µM		remaining binding	89%
CN1CCN(Cc2ccc(NC(=O)c3cccc(C#Cc4cnc(N)c5ncccc45)c3)cc2C(F)(F)F)CC1	cell-free assay, competition with immobilised ligand	0.5 µM		remaining binding	61%
NC(=O)C[C@H]1CCc2sc3ncnc(O[C@H]4CC[C@H](N5CCOCC5)CC4)c3c21	enzyme activity, inhibitor	10 µM		inhibition	1%
Cc1ccc(-c2c(/C=C(\C#N)C(=O)NC(C)C)n(CCCO)c3ncnc(N)c23)cc1	cell-free assay, competition with immobilised ligand	1 µM		remaining binding	100%
Nc1ncc2c(n1)-c1c([nH]c3ccc(C4=CCOCC4)cc13)CCC2	binding, competition with immobilised ligand	1 µM		remaining binding	78%
C=CC(=O)N1CCCC(n2c(=O)c3ncccc3n(Cc3ccc(Oc4ccccc4)cc3)c2=O)C1 (stereo not shown)	cell-free assay, competition with immobilised ligand	1 µM		remaining binding	71%
C=C1CCCCCCCCCC(CO)C1=O (stereo not shown)	cell-free assay, competition with immobilised ligand	10 µM		remaining binding	100%

For quick reference, copied from above:
SMILES	assay	setting	how to read	quantity	value
CNC(=O)C1CCN(c2cc(C)c(F)cc2NC(=O)c2ccc(-c3cc(O)ccc3C)c(C)c2)CC1	binding, competition with immobilised ligand	1 µM		remaining binding	97%
